Results of several laboratories.
A part holds a random share of what one study measured. Values joined by “and” are separate records of one study, mostly repeats; a detail may differ. Numbers after ± are the reported error.
Chain of UniProt Q9C098 (whole entry, looked up): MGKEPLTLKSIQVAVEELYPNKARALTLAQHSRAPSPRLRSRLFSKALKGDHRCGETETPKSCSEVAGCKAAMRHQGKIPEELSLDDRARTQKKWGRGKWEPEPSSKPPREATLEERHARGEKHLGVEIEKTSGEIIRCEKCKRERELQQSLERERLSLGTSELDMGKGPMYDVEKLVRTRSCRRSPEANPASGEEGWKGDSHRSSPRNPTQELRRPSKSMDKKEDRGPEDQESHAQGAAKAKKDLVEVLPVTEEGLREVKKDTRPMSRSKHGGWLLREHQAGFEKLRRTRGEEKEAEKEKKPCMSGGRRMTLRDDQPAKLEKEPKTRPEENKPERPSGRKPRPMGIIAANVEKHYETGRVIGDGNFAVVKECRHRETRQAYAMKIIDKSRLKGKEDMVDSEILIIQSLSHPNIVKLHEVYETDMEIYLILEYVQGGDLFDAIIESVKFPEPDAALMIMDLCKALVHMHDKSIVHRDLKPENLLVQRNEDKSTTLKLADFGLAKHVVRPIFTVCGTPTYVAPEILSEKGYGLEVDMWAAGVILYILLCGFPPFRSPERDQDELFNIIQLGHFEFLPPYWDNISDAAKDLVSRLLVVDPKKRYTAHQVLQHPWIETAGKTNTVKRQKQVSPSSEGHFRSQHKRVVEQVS
Chain of UniProt Q9UEE5 (whole entry, looked up): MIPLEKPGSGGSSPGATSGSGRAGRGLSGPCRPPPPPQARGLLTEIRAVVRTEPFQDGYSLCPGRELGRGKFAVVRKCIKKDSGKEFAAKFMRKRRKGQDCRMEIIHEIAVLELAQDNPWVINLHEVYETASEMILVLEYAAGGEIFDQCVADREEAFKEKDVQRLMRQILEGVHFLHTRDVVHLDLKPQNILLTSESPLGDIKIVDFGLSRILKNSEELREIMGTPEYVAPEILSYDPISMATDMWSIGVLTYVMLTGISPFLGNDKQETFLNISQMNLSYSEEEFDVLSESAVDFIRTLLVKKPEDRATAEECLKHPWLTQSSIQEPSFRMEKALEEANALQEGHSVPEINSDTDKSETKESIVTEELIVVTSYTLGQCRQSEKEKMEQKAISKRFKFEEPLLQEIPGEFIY

Study 1
Target: DNA polymerase theta, ATPase domain (POLQ, Homo sapiens, UniProt O75417)
Chain of UniProt O75417 (whole entry, unmodified, looked up): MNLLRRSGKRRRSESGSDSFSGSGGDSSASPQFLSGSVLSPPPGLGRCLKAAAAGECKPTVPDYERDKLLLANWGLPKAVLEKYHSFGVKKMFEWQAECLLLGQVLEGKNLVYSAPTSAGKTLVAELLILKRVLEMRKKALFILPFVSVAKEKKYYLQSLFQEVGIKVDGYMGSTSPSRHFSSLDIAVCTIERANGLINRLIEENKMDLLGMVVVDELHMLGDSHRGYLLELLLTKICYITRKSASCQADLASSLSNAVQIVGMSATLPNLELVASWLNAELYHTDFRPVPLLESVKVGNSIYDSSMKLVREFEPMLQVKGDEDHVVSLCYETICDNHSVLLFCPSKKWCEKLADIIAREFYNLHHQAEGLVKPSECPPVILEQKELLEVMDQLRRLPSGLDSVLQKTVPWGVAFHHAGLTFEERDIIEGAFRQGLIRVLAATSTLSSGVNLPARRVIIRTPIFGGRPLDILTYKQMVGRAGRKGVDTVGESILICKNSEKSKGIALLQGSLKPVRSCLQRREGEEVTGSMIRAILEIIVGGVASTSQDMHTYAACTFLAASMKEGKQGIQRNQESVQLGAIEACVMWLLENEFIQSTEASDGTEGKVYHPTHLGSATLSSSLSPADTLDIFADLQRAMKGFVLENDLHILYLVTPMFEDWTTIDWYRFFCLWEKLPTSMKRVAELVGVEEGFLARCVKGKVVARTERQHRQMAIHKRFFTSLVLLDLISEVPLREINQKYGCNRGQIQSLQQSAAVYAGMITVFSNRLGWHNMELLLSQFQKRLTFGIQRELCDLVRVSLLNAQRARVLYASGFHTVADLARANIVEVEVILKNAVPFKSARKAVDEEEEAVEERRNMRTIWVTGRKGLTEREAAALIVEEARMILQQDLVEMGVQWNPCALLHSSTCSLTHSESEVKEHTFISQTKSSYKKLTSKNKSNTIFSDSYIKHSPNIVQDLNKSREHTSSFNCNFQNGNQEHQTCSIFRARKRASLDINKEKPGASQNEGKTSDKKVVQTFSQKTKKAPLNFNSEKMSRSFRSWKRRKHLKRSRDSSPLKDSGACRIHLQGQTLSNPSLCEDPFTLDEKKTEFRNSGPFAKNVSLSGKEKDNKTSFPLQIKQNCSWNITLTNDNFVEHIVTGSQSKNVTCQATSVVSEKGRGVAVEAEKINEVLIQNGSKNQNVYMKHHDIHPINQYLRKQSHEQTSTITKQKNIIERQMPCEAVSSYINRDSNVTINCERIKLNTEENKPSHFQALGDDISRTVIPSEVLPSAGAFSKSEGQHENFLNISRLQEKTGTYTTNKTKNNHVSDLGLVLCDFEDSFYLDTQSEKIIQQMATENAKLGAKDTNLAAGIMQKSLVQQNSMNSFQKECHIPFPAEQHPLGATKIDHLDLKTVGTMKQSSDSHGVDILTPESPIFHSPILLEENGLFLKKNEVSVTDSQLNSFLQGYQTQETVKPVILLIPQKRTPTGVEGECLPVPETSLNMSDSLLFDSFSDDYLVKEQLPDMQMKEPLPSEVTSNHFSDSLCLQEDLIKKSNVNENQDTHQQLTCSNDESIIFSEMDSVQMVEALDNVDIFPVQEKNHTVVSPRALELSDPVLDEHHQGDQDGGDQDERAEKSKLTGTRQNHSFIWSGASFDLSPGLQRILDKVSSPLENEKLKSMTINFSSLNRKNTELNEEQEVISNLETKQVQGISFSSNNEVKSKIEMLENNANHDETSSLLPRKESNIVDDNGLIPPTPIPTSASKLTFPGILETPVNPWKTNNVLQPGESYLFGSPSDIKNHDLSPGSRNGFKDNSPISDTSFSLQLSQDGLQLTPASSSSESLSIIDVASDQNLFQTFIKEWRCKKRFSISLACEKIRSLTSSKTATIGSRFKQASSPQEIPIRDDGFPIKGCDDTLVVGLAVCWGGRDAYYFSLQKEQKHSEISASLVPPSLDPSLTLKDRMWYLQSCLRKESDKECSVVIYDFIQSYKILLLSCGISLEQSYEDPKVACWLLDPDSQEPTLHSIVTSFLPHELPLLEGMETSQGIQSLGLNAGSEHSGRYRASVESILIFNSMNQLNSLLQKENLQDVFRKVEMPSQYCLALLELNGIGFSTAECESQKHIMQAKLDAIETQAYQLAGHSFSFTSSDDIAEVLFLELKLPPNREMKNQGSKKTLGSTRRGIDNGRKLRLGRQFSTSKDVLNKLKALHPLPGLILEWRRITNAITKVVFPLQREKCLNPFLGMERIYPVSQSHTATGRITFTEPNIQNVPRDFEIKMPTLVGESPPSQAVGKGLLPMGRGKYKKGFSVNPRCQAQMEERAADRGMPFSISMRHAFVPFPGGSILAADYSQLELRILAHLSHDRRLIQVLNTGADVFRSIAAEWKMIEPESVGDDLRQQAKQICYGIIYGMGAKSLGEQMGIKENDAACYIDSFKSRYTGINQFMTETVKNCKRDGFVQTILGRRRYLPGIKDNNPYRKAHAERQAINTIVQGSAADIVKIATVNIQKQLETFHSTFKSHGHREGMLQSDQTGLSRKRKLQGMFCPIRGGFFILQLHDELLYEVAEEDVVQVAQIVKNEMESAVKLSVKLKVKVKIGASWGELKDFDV
Effect on: enzyme activity
Action: inhibitor
Tested at: 77 µM
Baseline: untreated
SMILES | remaining activity
CCc1cc2c(cc1CC)CC(NC[C@H](O)c1ccc(O)c3[nH]c(=O)ccc13)C2 | 109%
CC(C)Cn1c(=O)n(C)c(=O)c2[nH]cnc21 | 93%
C[C@]12CCC(=O)C=C1CC[C@@H]1[C@@H]2[C@@H](O)C[C@@]2(C)[C@H]1CC[C@]2(O)C(=O)CO | 85.2% and 100%
C=CC1=C(C(=O)O)N2C(=O)[C@@H](NC(=O)/C(=N\OCC(=O)O)c3csc(N)n3)[C@H]2SC1 | 76.7%
CN[C@@H]1[C@H](O[C@H]2[C@H](O[C@H]3[C@H](O)[C@@H](O)[C@H](N=C(N)N)[C@@H](O)[C@@H]3N=C(N)N)O[C@@H](C)[C@]2(O)CO)O[C@@H](CO)[C@H](O)[C@H]1O | 94.9%
CC[C@@H]([C@H](C)O)n1ncn(-c2ccc(N3CCN(c4ccc(OC[C@@H]5CO[C@@](Cn6cncn6)(c6ccc(F)cc6F)C5)cc4)CC3)cc2)c1=O | 95.5%
Cc1cnc(Nc2ccc(OCCN3CCCC3)cc2)nc1Nc1cccc(S(=O)(=O)NC(C)(C)C)c1 | 97.9%

Study 2
SMILES: C[C@H](c1ccnc(Nc2nc3ccc(-c4cc(N(C)C)ncn4)cc3[nH]2)c1)N1CCN(C(=O)CC(F)(F)F)CC1
Effect on: target engagement
Technique: NanoBRET
target | system | EC50
STK17A (Homo sapiens, UniProt Q9UEE5) | – | 4.8 ± 2 µM
IKBKE (Homo sapiens, UniProt Q14164) | live cells | 0.176 µM
FLT3 (Homo sapiens, UniProt P36888) | live cells | 15.7 µM and 31.2 µM

Study 3
Target: Death-associated protein kinase 3 (DAPK3, Homo sapiens, UniProt O43293)
Chain of UniProt O43293 (whole entry, looked up): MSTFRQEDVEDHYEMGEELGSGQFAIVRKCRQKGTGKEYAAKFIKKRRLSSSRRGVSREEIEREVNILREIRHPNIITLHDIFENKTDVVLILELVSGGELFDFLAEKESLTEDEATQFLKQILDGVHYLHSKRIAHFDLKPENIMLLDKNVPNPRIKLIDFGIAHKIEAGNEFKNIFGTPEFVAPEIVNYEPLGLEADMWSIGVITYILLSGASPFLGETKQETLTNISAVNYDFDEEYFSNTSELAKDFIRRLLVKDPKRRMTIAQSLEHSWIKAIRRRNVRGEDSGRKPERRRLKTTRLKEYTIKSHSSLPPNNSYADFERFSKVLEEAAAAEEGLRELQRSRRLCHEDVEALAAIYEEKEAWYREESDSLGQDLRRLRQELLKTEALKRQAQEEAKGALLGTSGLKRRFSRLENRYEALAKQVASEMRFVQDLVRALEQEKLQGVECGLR
Effect on: enzyme activity
Action: inhibitor
Tested at: 0.5 µM
Baseline: control
Structure (SMILES) | remaining activity
CCN(CC)CCCCN1c2ccccc2Oc2ccc(Cl)cc21 | 106%
FC(F)(F)c1ccc(/C=C/c2nc(COc3ccc(CCCCn4ccnn4)cc3)co2)cc1 | 105%
COc1cc2c(N3CCN(C(=O)Nc4ccc(OC(C)C)cc4)CC3)ncnc2cc1OCCCN1CCCCC1 | 101%
O=C(O)/C=C/c1cc(Br)c(Br)c(Br)c1Br | 90.2%
N#CC(c1ccnc(NCCc2cccnc2)n1)c1nc2ccccc2s1 (stereo not shown) | 109%
CC(C)n1cnc2c(Nc3cccc(Cl)c3)nc(NCCO)nc21 | 102%
C[C@@H](N)[C@H]1CC[C@H](C(=O)Nc2ccncc2)CC1 | 90.7%
COc1cc2c(Nc3ccc(Br)cc3F)ncnc2cc1OCC1CCN(C)CC1 | 90.3%
O=C1c2ccccc2-c2nc3nnnn3nc21 | 96.2%
c1cc(-c2cnn3cc(-c4ccc(OCCN5CCCCC5)cc4)cnc23)ccn1 | 91.6%

Study 4
SMILES: O=C(Nc1ccccc1)Nc1cccc(Oc2ccc3nccn3n2)c1
Tested at: 1 µM
target | test | remaining activity
DCLK3 (Homo sapiens, UniProt Q9C098) | – | 31%
CSF1R (Homo sapiens, UniProt P07333) | – | 0.4%
MTOR (Homo sapiens, UniProt P42345) | biochemical | 79%
CDK8 (Homo sapiens, UniProt P49336) | – | 24%
MAP3K19 (Homo sapiens, UniProt Q56UN5) | – | 13%
KIT (Homo sapiens, UniProt P10721) | – | 0%
DDR2 (Homo sapiens, UniProt Q16832) | – | 99%
FLT4 (Homo sapiens, UniProt P35916) | – | 33%

For quick reference, copied from above (study 1):
SMILES | remaining activity
C=CC1=C(C(=O)O)N2C(=O)[C@@H](NC(=O)/C(=N\OCC(=O)O)c3csc(N)n3)[C@H]2SC1 | 76.7%
CC[C@@H]([C@H](C)O)n1ncn(-c2ccc(N3CCN(c4ccc(OC[C@@H]5CO[C@@](Cn6cncn6)(c6ccc(F)cc6F)C5)cc4)CC3)cc2)c1=O | 95.5%
CN[C@@H]1[C@H](O[C@H]2[C@H](O[C@H]3[C@H](O)[C@@H](O)[C@H](N=C(N)N)[C@@H](O)[C@@H]3N=C(N)N)O[C@@H](C)[C@]2(O)CO)O[C@@H](CO)[C@H](O)[C@H]1O | 94.9%
Cc1cnc(Nc2ccc(OCCN3CCCC3)cc2)nc1Nc1cccc(S(=O)(=O)NC(C)(C)C)c1 | 97.9%
